Literature values, collected from citations in different studies.
Compare with care: the assays were run in different laboratories. ± gives the spread as reported.

The plasma half-life of CC/C=C\C/C=C\C/C=C\C/C=C\C/C=C\C/C=C\CCC(=O)Nc1ccn([C@@H]2O[C@H](CO)[C@@H](O)C2(F)F)c(=O)n1 is reported as roughly 0.967 h (mouse; 75 mg/kg, Tween 80-ethanol-water vehicle).
For O=C(O)C(Cl)Cl, “dose of maximal hepatic oxidative damage” read 154 mg/kg/day (measured: superoxide anion, lipid peroxidation, DNA damage; mouse, liver; 7.7 to 410 mg/kg/day, subchronic).
With COc1ccc2[nH]c([S+]([O-])Cc3ncc(C)c(OC)c3C)nc2c1 (centres unmarked) the unbound Cmax was 40 µM (plasma; concentration not given).
With COc1cccc(-c2c(C)n(Cc3c(F)cccc3C(F)(F)F)c(=O)n(C[C@H](NCCCC(=O)O)c3ccccc3)c2=O)c1F the Cmax ratio was 2.6 (human, Child-Pugh B hepatic impairment; 150 mg single dose, mean observed; relative to: patients over healthy volunteers).
Under “Km or Ki”, Nc1nc2c(nc(Br)n2[C@@H]2O[C@@H]3COP(=O)(O)O[C@H]3[C@H]2O)c(=O)[nH]1 is recorded as 90.9 µM (PDE2A; cyclic nucleotide hydrolysis, substrate or inhibitor, isothermal titration calorimetry).
The Cmin of CCN(CC)CCNC(=O)c1c(C)[nH]c(/C=C2\C(=O)Nc3ccc(F)cc32)c1C is reported as 0.0628 µg/mL (measured: parent plus desethyl metabolite; human patients, plasma; oral, 50 mg once daily, day 28).
Under “maximum whole-body concentration”, CN[C@H]1CC[C@@H](c2ccc(Cl)c(Cl)c2)c2ccccc21 is recorded as 17 ng/g (juvenile Chinook salmon, whole body wet weight; concentration not given, field-collected).
Under “log2 fold change”, CC(C)(C)c1nc(-c2cccc(NS(=O)(=O)c3c(F)cccc3F)c2F)c(-c2ccnc(N)n2)s1 is recorded as 0.71 (hiPSC-derived cardiomyocytes; contractility; concentration not given, 72 h, at effective concentration; relative to: baseline).
The unbound fraction of CCc1ccc(CCOc2ccc(CC3SC(=O)NC3=O)cc2)nc1 (centres unmarked) is reported as 0.19 to 0.34 (rapid equilibrium dialysis; hepatocyte culture medium).
`liraglutide` gave an unbound fraction of 0.68% (human, moderate hepatic impairment, plasma; 100 pM).
CO[C@H]1O[C@H](COS(=O)(=O)O)[C@@H](O[C@@H]2O[C@@H](C(=O)O)[C@@H](O[C@H]3O[C@H](COS(=O)(=O)O)[C@@H](O[C@@H]4O[C@H](C(=O)O)[C@@H](O[C@H]5O[C@H](COS(=O)(=O)O)[C@@H](O)[C@H](O)[C@H]5NS(=O)(=O)O)[C@H](O)[C@H]4O)[C@H](OS(=O)(=O)O)[C@H]3NS(=O)(=O)O)[C@H](O)[C@H]2OS(=O)(=O)O)[C@H](O)[C@H]1NS(=O)(=O)O gave a diarrhoea incidence of less than 3% (human; concentration not given, clinical).
CC[C@@H](C)[C@@H](NC(=O)[C@@H](CCCCN)NC(=O)[C@H](CCCCN)NC(=O)[C@H](Cc1ccccc1)NC(=O)[C@H](CC(C)C)NC(=O)[C@H](CCCCN)NC(=O)[C@@H](N)CCCCN)C(=O)N[C@H](CC(C)C)C(=O)N[C@H](CCCCN)C(=O)N[C@H](Cc1ccc(O)cc1)C(=O)N[C@H](CC(C)C)C(N)=O has a hemolysis of 0 ± 0.7% (horse erythrocytes 5 % v/v; 150 µM).
For CN(C)C/C=C/C(=O)Nc1cc2c(Nc3ccc(F)c(Cl)c3)ncnc2cc1O[C@H]1CCOC1, “lowest effective concentration” read 1.65 µM (hiPSC-derived cardiomyocytes; contractility; 72 h).
O=C(O)CNC(=O)c1ccccc1[131I] — result for “percent injected dose”: 0.1 ± 0.1 %ID (normal rat, lung; 60 min, added: co-injected 99mTc-1).
With O[C@@H](COc1cccc2ncccc12)CN1CCN([C@@H]2c3ccccc3[C@@H]3[C@H](c4ccccc42)C3(F)F)CC1 the half-life was 6 to 24 h (human; dose not given).
The Cmax of C1CCC(C(CC2CCCCN2)C2CCCCC2)CC1 (centres unmarked) is reported as 0.28 µM (plasma; concentration not given).
The fraction unbound of CC(C)/N=c1\cc2n(-c3ccc(Cl)cc3)c3ccccc3nc-2cc1Nc1ccc(Cl)cc1 is reported as less than 0.01% (THP-1 foamy macrophage matrix; 5 µM, 4 h, 37 °C).
Under “cardiac ischaemia or infarction events”, CNC(=O)c1cc(Oc2ccc(NC(=O)Nc3ccc(Cl)c(C(F)(F)F)c3)cc2)ccn1 is recorded as 4.9% (renal cell carcinoma patients; dose not given, 16 months post-crossover, phase III; relative to: patients).
For CC(C)(S)[C@@H](N)C(=O)O, the Cmax was 53.6 µM (plasma; concentration not given).
The renal clearance of CCS(=O)(=O)N1CC(CC#N)(n2cc(-c3ncnc4[nH]ccc34)cn2)C1 is reported as 69% (healthy humans; concentration not given, added: probenecid; relative to: without probenecid).
Under pharmacokinetics, Br.Cc1ccc(Sc2ccccc2N2CCNCC2)c(C)c1 is recorded as “no effect” (human; added: omeprazole).
For CC[C@@H]1CN(C(=O)NCC(F)(F)F)C[C@@H]1c1cnc2cnc3[nH]ccc3n12, the AUC increase was 32% (population pharmacokinetics; rheumatoid arthritis patients, moderate renal impairment; dose not given; relative to: normal renal function).
Nc1nc(NC2CC2)c2ncn([C@H]3C=C[C@@H](CO)C3)c2n1 gave a median Tmax of 1 h (Japanese HIV-infected patients; 600 mg, single dose, fasted, added: lamivudine 300 mg).
Nc1nc2c(ncn2[C@@H]2O[C@@H]3COP(=O)(O)O[C@H]3[C@H]2O)c(=O)[nH]1 gave a log Kw of 0.77 (methanol/water).
For CC[C@H](C)CCCCC(=O)N[C@@H](CCN)C(=O)N[C@H](C(=O)N[C@@H](CCN)C(=O)N[C@H]1CCNC(=O)[C@H]([C@@H](C)O)NC(=O)[C@H](CCN)NC(=O)[C@H](CCN)NC(=O)[C@H](CC(C)C)NC(=O)[C@@H](Cc2ccccc2)NC(=O)[C@H](CCN)NC1=O)[C@@H](C)O, the total clearance was 2.37 L/h (population PK model; critically ill patients; intravenous, typical value).
Cc1nc2cccc(OCC(C)(C)C(=O)NC(C)C)c2c(N)c1C(=O)[O-].[Na+] has a Cmax of 99.4% (rat, male, plasma; oral gavage, 30 mg/kg, molecular weight corrected; relative to: parent drug).
With CCN(CC)CC#CCOC(=O)C(O)(c1ccccc1)C1CCCCC1 (centres unmarked) the Cmax was 0.17 µM (plasma; concentration not given).
COc1cccc(CCc2ccccc2OCC(CN(C)C)OC(=O)CCC(=O)O)c1 (racemic) gave an AUC of 0.266 µg·h/mL (human; oral, 50 mg single dose as hydrochloride, geometric mean).
O=C(N[C@@H]1CC[C@@H](c2cccc(F)c2F)CN(CC(F)(F)F)C1=O)N1CCC(n2c(=O)[nH]c3ncccc32)CC1: “incidence of ALT elevation” “increased” (measured: ALT above 3-fold ULN; patients; up to 280 mg twice daily, 2 weeks or more).
With Sc1ncnc2nc[nH]c12 the logP was 0.01 (octanol-water).
With `GGVVIA` the solubility was 143 ± 27 µM (filtration; peptide, sodium phosphate buffer; pH 7.4).
The aqueous solubility of CN1C(C(=O)Nc2ccccn2)=C(O)c2ccccc2S1(=O)=O is reported as -1.91 log mg/mL (water; hydrate).
COc1cccc(-c2ccc(NC(=O)C3=C(C(=O)O)CCC3)c(F)c2)c1 gave an AUC(0-24 h) of 260 µg·h/mL (human; 70 mg daily, steady state).
For COc1cc(N2CCC(N3CCN(C)CC3)CC2)ccc1Nc1ncc(Cl)c(Nc2ccccc2P(C)(C)=O)n1, AUC(0-inf) read “no effect” (healthy human; oral, 180 mg, added: high-fat meal; relative to: fasted).
For Cc1ccc(Nc2nccc(N(C)c3ccc4c(C)n(C)nc4c3)n2)cc1S(N)(=O)=O, “patients with thrombocytopenia” read 32% (patients; dose not given, all grades).
CC1=C(CC(=O)O)c2cc(F)ccc2/C1=C\c1ccc([S+](C)[O-])cc1 (centres unmarked) has a Cmax of 19 µM (plasma; concentration not given).
With CC1(COc2ccc3c(c2)ncn3-c2ccc3cccc(N4CCC(N)CC4)c3n2)COC1 the plasma concentration was 0.1 µg/mL (mouse, U-87 MG xenograft; 50 mg/kg twice daily).
O=C1c2ccccc2-c2c1c1ccc([N+](=O)[O-])cc1c(=O)n2CCCn1ccnc1 gave a GI50 of 0.37 ± 0.28 µM (NCI-60 panel mean; cell growth).
The Cmax of Cn1cc[nH]c1=S is reported as 9.2 µM (plasma; concentration not given).
With Cc1ccccc1-c1cc(N2CCN(C)CC2)ncc1N(C)C(=O)C(C)(C)c1cc(C(F)(F)F)cc(C(F)(F)F)c1 the CL/F was 18.4 L/h (healthy volunteers, plasma; oral, dose not given, netupitant-palonosetron alone, ketoconazole study).
CC[C@H](C)[C@H](NC(=O)[C@H](Cc1ccccc1)NC(=O)[C@H](CCC(=O)O)NC(=O)[C@H](CCCCNC(=O)COCCOCCNC(=O)COCCOCCNC(=O)CC[C@H](NC(=O)CCCCCCCCCCCCCCCCC(=O)O)C(=O)O)NC(=O)[C@H](C)NC(=O)[C@H](C)NC(=O)[C@H](CCC(N)=O)NC(=O)CNC(=O)[C@H](CCC(=O)O)NC(=O)[C@H](CC(C)C)NC(=O)[C@H](Cc1ccc(O)cc1)NC(=O)[C@H](CO)NC(=O)[C@H](CO)NC(=O)[C@@H](NC(=O)[C@H](CC(=O)O)NC(=O)[C@H](CO)NC(=O)[C@@H](NC(=O)[C@H](Cc1ccccc1)NC(=O)[C@@H](NC(=O)CNC(=O)[C@H](CCC(=O)O)NC(=O)C(C)(C)NC(=O)[C@@H](N)Cc1cnc[nH]1)[C@@H](C)O)[C@@H](C)O)C(C)C)C(=O)N[C@@H](C)C(=O)N[C@@H](Cc1c[nH]c2ccccc12)C(=O)N[C@@H](CC(C)C)C(=O)N[C@H](C(=O)N[C@@H](CCCNC(=N)N)C(=O)NCC(=O)N[C@@H](CCCNC(=N)N)C(=O)NCC(=O)O)C(C)C: “absorption rate constant” 0.0286 h⁻¹ (population PK model; human; fixed value).
For CO[C@]12C[C@@H](COC(=O)c3cncc(Br)c3)CN(C)[C@@H]1Cc1cn(C)c3cccc2c13, the Cmax was 0.0002 µM (plasma; concentration not given).
The logD of C[C@H](N[C@@H](CCc1ccccc1)C(=O)O)C(=O)N1CCC[C@H]1C(=O)O is reported as -1 (n-octanol/water; pH 6.5).
The unbound concentration of CN(C)C(=O)c1cc2cnc(Nc3ccc(N4CCNCC4)cn3)nc2n1C1CCCC1 is reported as 0.46 ± 0.24 nmol/g (recurrent brain tumour patients, MRI-non-enhancing tumour; 900 mg/day, 5 days).
CCC1=C(C)CN(C(=O)NCCc2ccc(S(=O)(=O)NC(=O)N[C@H]3CC[C@H](C)CC3)cc2)C1=O gave a Cmax of 0.5 µM (plasma; concentration not given).
For O=C1c2cccc3c2[C@H](CCC3)CN1[C@@H]1CN2CCC1CC2, the AUC(0-inf) was 77.3 ng ⋅ h/mL (healthy volunteers; oral, 0.75 mg single dose, mean, added: netupitant 450 mg).
The Css,max of COc1cc2c(Oc3ccc4[nH]c(C)cc4c3F)ncnc2cc1OCCCN1CCCC1 is reported as 0.0696 µg/mL (human, plasma; oral, 30 mg once daily, multiple doses, geometric mean).
C#Cc1cccc(Nc2ncnc3cc(OCCOC)c(OCCOC)cc23)c1 gave a clearance of 4 L/h (children; 120 mg/m^2/day, mean of two days).
C=C1CC[C@@H]2[C@](C)(CO)[C@H](O)CC[C@@]2(C)[C@@H]1C/C=C1/C(=O)OC[C@H]1O gave an effective permeability of 570 nm/s (rat, jejunum; without cyclodextrin).
With Nc1ccn([C@@H]2CS[C@H](CO)O2)c(=O)n1 the AUC(0-inf) was 13.1 µg·h/mL (healthy, mostly White or Black; 300 mg, single dose, fasted, added: abacavir 600 mg, dolutegravir 50 mg).
CCCCC1=NC2(CCCC2)C(=O)N1Cc1ccc(-c2ccccc2S(=O)(=O)Nc2noc(C)c2C)c(COCC)c1 has an AUCinf increase of 70% (healthy human volunteers; dose not given, added: cyclosporine; relative to: without cyclosporine).
The diffusion coefficient of `BODIPY-PIP2` is reported as 3e-08 cm²/s (fluorescence correlation spectroscopy; fluid PC membrane).
Cc1ccnc2c1NC(=O)c1cccnc1N2C1CC1 gave an oral bioavailability of greater than 90% (human; oral).

A few entries again:
With O[C@@H](COc1cccc2ncccc12)CN1CCN([C@@H]2c3ccccc3[C@@H]3[C@H](c4ccccc42)C3(F)F)CC1 the half-life was 6 to 24 h (human; dose not given).
The Cmax of C1CCC(C(CC2CCCCN2)C2CCCCC2)CC1 (centres unmarked) is reported as 0.28 µM (plasma; concentration not given).
The fraction unbound of CC(C)/N=c1\cc2n(-c3ccc(Cl)cc3)c3ccccc3nc-2cc1Nc1ccc(Cl)cc1 is reported as less than 0.01% (THP-1 foamy macrophage matrix; 5 µM, 4 h, 37 °C).
Under “cardiac ischaemia or infarction events”, CNC(=O)c1cc(Oc2ccc(NC(=O)Nc3ccc(Cl)c(C(F)(F)F)c3)cc2)ccn1 is recorded as 4.9% (renal cell carcinoma patients; dose not given, 16 months post-crossover, phase III; relative to: patients).
